Results gathered from unrelated publications.
Numbered parts are unrelated; each lists some results of a single study.
Sequence of UniProt P42336 (whole entry, unmodified, looked up): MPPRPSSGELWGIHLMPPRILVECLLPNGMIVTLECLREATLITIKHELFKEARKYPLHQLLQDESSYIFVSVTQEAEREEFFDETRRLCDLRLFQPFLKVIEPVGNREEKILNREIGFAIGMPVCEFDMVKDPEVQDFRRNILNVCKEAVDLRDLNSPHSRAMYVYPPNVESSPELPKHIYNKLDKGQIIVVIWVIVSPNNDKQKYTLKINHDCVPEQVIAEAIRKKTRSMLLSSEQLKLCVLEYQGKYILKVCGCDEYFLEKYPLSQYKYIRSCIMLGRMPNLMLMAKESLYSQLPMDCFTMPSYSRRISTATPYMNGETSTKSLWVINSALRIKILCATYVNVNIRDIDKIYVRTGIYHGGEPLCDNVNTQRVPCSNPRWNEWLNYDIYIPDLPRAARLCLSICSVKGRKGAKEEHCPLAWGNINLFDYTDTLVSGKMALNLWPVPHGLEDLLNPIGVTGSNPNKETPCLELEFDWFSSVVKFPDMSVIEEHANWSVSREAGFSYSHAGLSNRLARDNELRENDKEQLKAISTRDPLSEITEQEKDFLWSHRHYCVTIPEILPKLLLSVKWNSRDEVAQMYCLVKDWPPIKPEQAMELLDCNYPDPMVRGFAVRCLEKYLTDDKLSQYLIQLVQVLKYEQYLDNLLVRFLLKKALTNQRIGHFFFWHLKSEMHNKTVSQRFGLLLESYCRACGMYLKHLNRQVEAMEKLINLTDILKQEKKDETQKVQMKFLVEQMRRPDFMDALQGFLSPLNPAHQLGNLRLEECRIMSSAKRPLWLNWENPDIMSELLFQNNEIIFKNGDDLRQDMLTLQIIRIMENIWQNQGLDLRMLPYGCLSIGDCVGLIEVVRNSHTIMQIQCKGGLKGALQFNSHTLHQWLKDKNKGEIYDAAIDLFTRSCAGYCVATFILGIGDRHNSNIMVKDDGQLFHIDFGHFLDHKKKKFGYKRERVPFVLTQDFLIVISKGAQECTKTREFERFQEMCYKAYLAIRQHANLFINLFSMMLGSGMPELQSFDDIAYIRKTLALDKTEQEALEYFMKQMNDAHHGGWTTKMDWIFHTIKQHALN
Sequence of UniProt Q6DT37 (whole entry, looked up): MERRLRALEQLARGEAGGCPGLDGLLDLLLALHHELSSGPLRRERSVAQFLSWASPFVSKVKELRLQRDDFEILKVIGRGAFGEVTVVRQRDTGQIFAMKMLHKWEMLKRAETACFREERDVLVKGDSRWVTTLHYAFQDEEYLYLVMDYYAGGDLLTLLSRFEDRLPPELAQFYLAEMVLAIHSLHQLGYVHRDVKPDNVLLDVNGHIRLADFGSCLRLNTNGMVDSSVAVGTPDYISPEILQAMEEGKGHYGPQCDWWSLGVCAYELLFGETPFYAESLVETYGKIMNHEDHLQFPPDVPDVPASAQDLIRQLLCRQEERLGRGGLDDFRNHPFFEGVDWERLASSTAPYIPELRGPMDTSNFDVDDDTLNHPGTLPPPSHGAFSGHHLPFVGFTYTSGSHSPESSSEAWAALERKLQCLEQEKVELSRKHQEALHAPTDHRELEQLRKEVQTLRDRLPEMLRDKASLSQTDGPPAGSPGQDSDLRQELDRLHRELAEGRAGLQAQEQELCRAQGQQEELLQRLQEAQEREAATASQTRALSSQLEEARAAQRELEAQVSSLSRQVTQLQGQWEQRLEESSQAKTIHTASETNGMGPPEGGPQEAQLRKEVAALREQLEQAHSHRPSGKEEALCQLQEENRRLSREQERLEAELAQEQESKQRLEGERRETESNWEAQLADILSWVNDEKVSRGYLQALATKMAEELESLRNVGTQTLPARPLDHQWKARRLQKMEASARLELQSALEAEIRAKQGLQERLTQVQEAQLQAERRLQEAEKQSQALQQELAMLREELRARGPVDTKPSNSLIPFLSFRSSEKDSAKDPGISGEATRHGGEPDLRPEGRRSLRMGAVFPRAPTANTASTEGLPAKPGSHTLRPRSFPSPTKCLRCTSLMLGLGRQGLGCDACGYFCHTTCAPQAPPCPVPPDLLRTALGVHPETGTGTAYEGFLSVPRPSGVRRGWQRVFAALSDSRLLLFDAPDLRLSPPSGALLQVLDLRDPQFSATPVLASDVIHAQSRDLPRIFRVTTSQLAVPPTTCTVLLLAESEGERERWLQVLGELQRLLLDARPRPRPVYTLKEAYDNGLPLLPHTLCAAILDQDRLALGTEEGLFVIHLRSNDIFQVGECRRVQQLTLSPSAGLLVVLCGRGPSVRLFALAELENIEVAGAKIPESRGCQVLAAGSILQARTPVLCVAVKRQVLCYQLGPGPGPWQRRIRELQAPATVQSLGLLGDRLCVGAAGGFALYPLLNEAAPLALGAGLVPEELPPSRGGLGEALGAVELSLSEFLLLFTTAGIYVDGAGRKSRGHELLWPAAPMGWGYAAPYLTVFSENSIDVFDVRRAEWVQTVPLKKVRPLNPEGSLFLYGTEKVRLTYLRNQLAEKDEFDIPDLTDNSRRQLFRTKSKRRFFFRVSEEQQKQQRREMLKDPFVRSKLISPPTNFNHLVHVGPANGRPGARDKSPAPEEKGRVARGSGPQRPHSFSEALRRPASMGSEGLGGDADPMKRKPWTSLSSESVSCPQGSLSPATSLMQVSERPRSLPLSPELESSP
Sequence of UniProt Q86UE8 (whole entry, looked up): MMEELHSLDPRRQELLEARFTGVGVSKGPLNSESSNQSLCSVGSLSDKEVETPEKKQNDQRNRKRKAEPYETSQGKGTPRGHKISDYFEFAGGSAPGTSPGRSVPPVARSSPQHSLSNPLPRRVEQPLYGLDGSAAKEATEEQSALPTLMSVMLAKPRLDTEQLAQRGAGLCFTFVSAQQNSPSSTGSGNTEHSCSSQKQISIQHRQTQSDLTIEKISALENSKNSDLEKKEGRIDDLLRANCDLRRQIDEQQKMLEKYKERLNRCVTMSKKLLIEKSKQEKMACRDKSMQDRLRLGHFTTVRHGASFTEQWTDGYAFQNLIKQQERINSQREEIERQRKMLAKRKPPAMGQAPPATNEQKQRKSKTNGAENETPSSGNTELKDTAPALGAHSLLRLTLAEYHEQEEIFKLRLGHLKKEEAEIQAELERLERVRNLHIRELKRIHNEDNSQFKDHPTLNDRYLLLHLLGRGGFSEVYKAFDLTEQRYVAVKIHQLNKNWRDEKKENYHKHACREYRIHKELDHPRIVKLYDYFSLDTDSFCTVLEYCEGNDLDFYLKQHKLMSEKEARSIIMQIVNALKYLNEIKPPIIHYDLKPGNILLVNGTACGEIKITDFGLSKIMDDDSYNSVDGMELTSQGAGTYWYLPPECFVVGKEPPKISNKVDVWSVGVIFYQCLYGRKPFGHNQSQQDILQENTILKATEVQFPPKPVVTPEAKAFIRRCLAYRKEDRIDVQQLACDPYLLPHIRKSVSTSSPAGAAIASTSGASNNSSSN
Sequence of UniProt Q12852 (whole entry, looked up): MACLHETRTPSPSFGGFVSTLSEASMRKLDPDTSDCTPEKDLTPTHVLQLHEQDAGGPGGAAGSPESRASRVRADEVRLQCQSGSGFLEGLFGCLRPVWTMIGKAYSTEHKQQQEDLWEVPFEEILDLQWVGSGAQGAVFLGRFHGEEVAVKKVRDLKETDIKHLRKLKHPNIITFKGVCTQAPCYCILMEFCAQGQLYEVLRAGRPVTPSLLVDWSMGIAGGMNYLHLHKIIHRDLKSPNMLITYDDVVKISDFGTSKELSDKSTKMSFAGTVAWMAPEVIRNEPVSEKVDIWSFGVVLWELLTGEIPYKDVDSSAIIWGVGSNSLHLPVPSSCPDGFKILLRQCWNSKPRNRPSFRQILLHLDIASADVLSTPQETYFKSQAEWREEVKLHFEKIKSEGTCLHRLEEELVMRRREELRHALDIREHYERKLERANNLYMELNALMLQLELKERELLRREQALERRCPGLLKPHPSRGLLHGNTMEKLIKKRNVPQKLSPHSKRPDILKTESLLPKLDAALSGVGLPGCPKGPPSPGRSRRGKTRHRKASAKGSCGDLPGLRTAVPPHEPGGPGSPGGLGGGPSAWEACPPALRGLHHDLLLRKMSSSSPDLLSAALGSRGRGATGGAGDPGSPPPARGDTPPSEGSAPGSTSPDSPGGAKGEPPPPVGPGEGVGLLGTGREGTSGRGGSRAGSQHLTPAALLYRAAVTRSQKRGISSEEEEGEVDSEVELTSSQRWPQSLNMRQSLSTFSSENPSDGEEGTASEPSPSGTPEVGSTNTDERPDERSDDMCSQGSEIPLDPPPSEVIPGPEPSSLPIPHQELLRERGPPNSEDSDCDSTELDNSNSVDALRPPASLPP
Sequence of UniProt Q8IU85 (whole entry, looked up): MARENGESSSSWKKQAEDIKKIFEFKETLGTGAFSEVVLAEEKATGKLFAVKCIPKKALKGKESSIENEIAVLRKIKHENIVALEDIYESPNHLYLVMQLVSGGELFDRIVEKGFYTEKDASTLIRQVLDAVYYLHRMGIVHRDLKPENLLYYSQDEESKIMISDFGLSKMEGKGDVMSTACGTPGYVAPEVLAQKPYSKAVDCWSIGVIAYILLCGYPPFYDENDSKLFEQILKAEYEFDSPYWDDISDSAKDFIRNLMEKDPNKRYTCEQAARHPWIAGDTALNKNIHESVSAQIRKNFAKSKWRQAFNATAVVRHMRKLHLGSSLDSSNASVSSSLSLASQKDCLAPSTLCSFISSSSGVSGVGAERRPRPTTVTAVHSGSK

Study 1 — cell line: A-375; concentration: 100 µM; time: 36 h
Compound | viability
CC[C@H]1OC(=O)[C@H](C)[C@@H](O[C@H]2C[C@@](C)(OC)[C@@H](O)[C@H](C)O2)[C@H](C)[C@@H](O[C@@H]2O[C@H](C)C[C@H](N(C)C)[C@H]2O)[C@](C)(OC)C[C@@H](C)C(=O)[C@H](C)[C@@H](O)[C@]1(C)O | 97%
C[C@]12C=CC(=O)C=C1CC[C@H]1[C@@H]3C[C@@H](O)[C@](O)(C(=O)CO)[C@@]3(C)C[C@H](O)[C@@]12F | 104%
CCCCC(=O)O[C@]1(C(=O)CO)[C@@H](C)C[C@H]2[C@@H]3CCC4=CC(=O)C=C[C@]4(C)[C@@]3(F)[C@@H](O)C[C@@]21C | -1.18%
CN1CCC(=C2c3ccccc3CCc3cccnc32)CC1 | 79.8%
CC(C)N1CCN(c2ccc(OC[C@H]3CO[C@](Cn4cncn4)(c4ccc(Cl)cc4Cl)O3)cc2)CC1 (racemic) | 0.122%
CNC(=C[N+](=O)[O-])NCCSCc1csc(CN(C)C)n1 | 108%
CC(=O)NCCCS(=O)(=O)O | 118%
O=C1O[C@H]([C@@H](O)CO)C(O)=C1O | 107%
Cc1ccc(S(=O)(=O)NC(=O)NN2CC3CCC[C@@H]3C2)cc1 (stereo in doubt) | 90.3%

Study 2 — effect on: enzyme activity; action: inhibitor; concentration: 0.5 µM; relative to: control
Target: Dual specificity protein kinase CLK1 (CLK1, Homo sapiens, UniProt P49759)
Target sequence (P49759 1-484): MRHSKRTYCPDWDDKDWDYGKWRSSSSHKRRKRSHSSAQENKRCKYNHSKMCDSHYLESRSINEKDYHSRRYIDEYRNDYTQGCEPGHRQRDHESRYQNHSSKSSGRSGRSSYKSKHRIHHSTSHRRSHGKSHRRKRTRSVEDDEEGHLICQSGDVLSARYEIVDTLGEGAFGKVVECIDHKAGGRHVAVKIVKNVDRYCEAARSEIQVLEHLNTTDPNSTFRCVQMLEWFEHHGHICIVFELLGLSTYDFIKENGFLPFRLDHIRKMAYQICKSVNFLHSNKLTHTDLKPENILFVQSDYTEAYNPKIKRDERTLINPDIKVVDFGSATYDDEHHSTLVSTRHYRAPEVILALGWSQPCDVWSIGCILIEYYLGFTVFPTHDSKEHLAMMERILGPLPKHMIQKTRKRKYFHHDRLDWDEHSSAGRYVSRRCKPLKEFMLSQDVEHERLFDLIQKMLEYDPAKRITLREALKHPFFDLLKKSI
Compound | remaining activity
N#Cc1c(NC(=O)c2cccc3ccccc23)sc2c1CCCC2 | 99.2%
CN([C@@H](Cc1ccc(OS(=O)(=O)c2cccc3cnccc23)cc1)C(=O)N1CCN(c2ccccc2)CC1)S(=O)(=O)c1cccc2cnccc12 | 97.3%
Cc1cn(-c2cc(NC(=O)c3ccc(C)c(Nc4nccc(-c5cccnc5)n4)c3)cc(C(F)(F)F)c2)cn1 | 73.8%
Cn1nc2c3c(cccc31)C(=O)c1ccccc1-2 | 92.7%
CCN(CC)CCNC(=O)c1c(C)[nH]c(/C=C2\C(=O)Nc3ccc(Cl)cc32)c1C | 34.2%
Cc1cc2ncc(-c3ccccc3)nc2cc1C | 95.4%
c1ccc(-c2[nH]ncc2-c2ccnc3ccccc23)nc1 | 106%
O=C1c2ccccc2-c2n[nH]c3cccc1c23 | 82.6%
Ic1cccc(CSc2nnc(-c3ccncc3)o2)c1 | 99.8%
O=C(Nc1cccc(Nc2nccc(Nc3cccc(C(F)(F)F)c3)n2)c1)C1CC1 | 102%
O=c1cc(-c2cccc3c2Sc2ccccc2S3)oc(N2CCOCC2)c1 | 103%
O=C(NC(NC(=S)Nc1ccc(F)c([N+](=O)[O-])c1)C(Cl)(Cl)Cl)C(c1ccccc1)c1ccccc1 (stereo not drawn) | 106%
COc1cc2ncnc(Nc3cccc(Cl)c3)c2cc1OC | 103%
Cc1nc2cc3nc(-c4cccs4)cnc3cc2n1C | 111%
CCOc1nc(NC(=O)Cc2cc(OC)ccc2OC)cc(N)c1C#N | 98.1%
c1ccc(-c2cnc(Nc3ccc(OCCN4CCCC4)cc3)s2)cc1 | 89.4%
Nc1cccc(-c2cc3c(Oc4cccc(O)c4)ncnc3[nH]2)c1 | 93%
COc1cc2c(cc1OC)-c1[nH]nc(Nc3cccc(F)c3)c1C2 | 102%
N#C/C(=C\c1ccc(O)c(O)c1)C(=O)NCc1ccccc1 | 98.5%
CCN(CC)C(=O)c1ccc(Nc2nc(OCC3CCCCC3)c3[nH]cnc3n2)cc1 | 74.1%
COc1cc2ncnc(Nc3ccc(O)c(Br)c3)c2cc1OC | 77.2%
O=C1C(Cl)=C(N2C(=O)CCC2=O)C(=O)c2ccccc21 | 103%
C[C@@H]1CCN(C(=O)CC#N)C[C@@H]1N(C)c1ncnc2[nH]ccc12 | 99.5%

Study 3 — sample: hydrocarbon/water
Compound | logD
CCN1CC(=O)N[C@@H](CC(C)C)C(=O)N2CCC[C@@H]2C(=O)N(C)[C@@H](CC(C)C)C(=O)N[C@@H](C)C(=O)N(CC2CCCCC2)CC(=O)N[C@@H](Cc2ccccc2)C(=O)N2CCC[C@@H]2C(=O)N(C)[C@@H](CC(C)C)C(=O)N[C@@H](C)C1=O | 2.84
CC(C)C[C@@H]1NC(=O)[C@H](Cc2ccccc2)N(C)C(=O)[C@H]2CCCN2C(=O)[C@H](CC(C)C)NC(=O)[C@H](C)N(C)C(=O)[C@@H](C)N(C)C1=O | 1.13
CC(C)C[C@@H]1NC(=O)[C@H](C)N(C)C(=O)[C@H](CC2CCCCC2)NC(=O)CN(CC(C)C)C(=O)[C@H]2CCCN2C(=O)[C@H](CC2CCCCC2)NC(=O)[C@H](C)N(C)C(=O)[C@H](C2CCCCC2)NC(=O)Cn2cc(nn2)CN(C)C1=O | 2.8
CC[C@H]1NC(=O)[C@H](CC(C)C)NC(=O)[C@H](Cc2ccccc2)NC(=O)[C@H]2CCCN2C(=O)[C@H](CC(C)C)NC(=O)[C@H](C)NC1=O | -1.13
CCC[C@@H]1NC(=O)CSC[C@@H](C(=O)OCC)N(C)C(=O)[C@H](CC(C)C)NC(=O)[C@H](C)N(C)C(=O)[C@H](CC(C)C)NC(=O)[C@H](C)N(C)C(=O)[C@@H]2CCCN2C(=O)[C@@H](CC(C)C)NC(=O)CN(C)C1=O | -0.302
CCCN1CC(=O)N[C@@H](CC2CCCCC2)C(=O)N(C)[C@@H](C)C(=O)N[C@@H](CC(C)C)C(=O)N(C)Cc2cn(nn2)CC(=O)N[C@@H](C2CCCCC2)C(=O)N(C)[C@@H](C)C(=O)N[C@@H](CC2CCCCC2)C(=O)N2CCC[C@@H]2C1=O | 2.51
CCC[C@H]1C(=O)N[C@@H](CC2CCCCC2)C(=O)N(C)[C@@H](C)C(=O)N[C@@H](CC(C)C)C(=O)N(C)Cc2cn(nn2)CC(=O)N[C@@H](CC(C)C)C(=O)N(C)[C@@H](C)C(=O)N[C@@H](C2CCCCC2)C(=O)N2CCC[C@@H]2C(=O)N1C | 1.95
CC(C)C[C@@H]1NC(=O)[C@H](Cc2ccccc2)N(C)C(=O)[C@H]2CCCN2C(=O)[C@H](CC(C)C)NC(=O)[C@H](CC(C)C)N(C)C(=O)[C@@H](C)N(C)C1=O | 2.38

Study 4 — concentration: 1 µM
SMILES: C[C@@]1(Cc2ccc(C#N)cc2)C(=O)N(c2cc(Cl)cc(Cl)c2)c2ncc(C(=O)NC3(c4nc(C5CCC5)no4)CC3)n21
target | effect on | technique | remaining binding
FGR (Homo sapiens, UniProt P09769) | cell-free assay | competition with immobilised ligand | 100%
CDKL3 (Homo sapiens, UniProt Q8IVW4) | cell-free assay | competition with immobilised ligand | 100%
TLK2 (Homo sapiens, UniProt Q86UE8) | cell-free assay | competition with immobilised ligand | 97%
TESK1 (Homo sapiens, UniProt Q15569) | cell-free assay | competition with immobilised ligand | 100%
PIK3C2G (Homo sapiens, UniProt O75747) | cell-free assay | competition with immobilised ligand | 100%
CAMK1D (Homo sapiens, UniProt Q8IU85) | cell-free assay | competition with immobilised ligand | 100%
PRKCE (Homo sapiens, UniProt Q02156) | cell-free assay | competition with immobilised ligand | 100%
PRKCQ (Homo sapiens, UniProt Q04759) | cell-free assay | competition with immobilised ligand | 98%
PIK3CA (Homo sapiens, UniProt P42336, M1043I) | cell-free assay | competition with immobilised ligand | 100%
MAP3K20 (Homo sapiens, UniProt Q9NYL2) | cell-free assay | competition with immobilised ligand | 100%
HIPK4 (Homo sapiens, UniProt Q8NE63) | cell-free assay | competition with immobilised ligand | 100%
FLT3 (Homo sapiens, UniProt P36888, F691L/ITD) | cell-free assay | competition with immobilised ligand | 100%
CDC42BPG (Homo sapiens, UniProt Q6DT37) |  | competition binding | 100%
MAP3K12 (Homo sapiens, UniProt Q12852) | cell-free assay | competition with immobilised ligand | 100%

For quick reference, copied from above (study 2):
Compound | remaining activity
COc1cc2ncnc(Nc3cccc(Cl)c3)c2cc1OC | 103%
Cc1nc2cc3nc(-c4cccs4)cnc3cc2n1C | 111%
CCOc1nc(NC(=O)Cc2cc(OC)ccc2OC)cc(N)c1C#N | 98.1%
